Results of several laboratories.
Each numbered part is a random draw from the data of one study; scales do not carry over between parts.

Study 1 — technique: protein binding microarray; form: double-stranded DNA, one strand shown; sample: in vitro; concentration: not given; relative to: not given; direction: higher = stronger binding
Target: Histone acetyltransferase KAT6A, winged helix 2, GST fusion (KAT6A, Homo sapiens, UniProt Q92794, residues 85-181)
Setting: 8-mer, flanks averaged, mean of 2 arrays, mostly near background
Residues (chain): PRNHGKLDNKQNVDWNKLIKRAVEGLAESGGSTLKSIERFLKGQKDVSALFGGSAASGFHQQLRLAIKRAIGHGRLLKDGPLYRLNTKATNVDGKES
| Sequence | E-score |
| --- | --- |
| ACGACCGT | -0.194 |
| CATGCTGA | 0.0506 |
| CCCGGACG | 0.0817 |
| AATGGACG | -0.0212 |
| ACCAATAC | -0.133 |
| CCACTCAC | 0.156 |
| GGTAGGAC | 0.073 |
| ACCTTTCC | -0.157 |
| CCTCGATA | 0.0847 |
| GCATGCGC | 0.218 |
| AATGCTCA | 0.0436 |
| AAGTGGTA | -0.125 |
| GCCTTCAC | 0.185 |
| GCGAATGA | 0.0804 |
| CATAGAGA | -0.175 |
| ACGGGATC | 0.0459 |
| AAACTGTG | 0.102 |
| AACCAGGG | 0.0946 |
| AATACTAC | -0.0328 |
| AGATACAT | -0.142 |
| ACTCGACC | 0.0629 |
| CAATAGTC | -0.0505 |
| ATTCTGGA | -0.0214 |
| GACGTACA | 0.00894 |
| ACATAGTA | -0.0973 |

Study 2 — technique: RNA Bind-n-Seq; form: RNA; sample: in vitro; concentration: 200 nM; setting: whole 134-nt RNA, ends assumed; added: 150 mM LiCl; relative to: input library; direction: higher = stronger binding; library: 7-deaza-guanosine replaces G
Target: Fragile X messenger ribonucleoprotein 1, C-terminal low-complexity region (Fmr1, Mus musculus, UniProt P35922)
Constant ends, left off below: GGGAGUUCUACAGUCCGACGAUC … UGGAAUUCUCGGGUGUCAAGG
| Sequence | log2 enrichment |
| --- | --- |
| CACAGACAACACGCACCCACACAGACACAGAGGGAAGGGGUUGGGAUGGGGACAGGGUGAAAAGCAGGGCGGGGUAGGACCCCAGCCCCU | -0.112 |
| GUCCUGUGCUACACAUCGUAUGUACCGAAUCGGGAAAAAGGGAAAAAGGGAAAAAGGGGAAAGUAUUAUGUUACGCCGUUCGGAUCUGCA | 0.579 |
| AGUCCUGUGCUACACAUCGUAUGUACCGAAUCAAACCCAAAUUUAAAUUUUUUUAAAAAAGUAUUAUGUUACGCCGUUCGGAUCUGCACU | -1.42 |
| UCAAGUCCUGUGCUACACAUCGUAUGUACCGAAUCGGUUUGGUUUUUUUGGAGGAAAGUAUUAUGUUACGCCGUUCGGAUCUGCACUUCC | -0.0321 |
| ACCAUGCAGGUGGGCAUCUUUGGGAAGUGGGGCAAGGGGGGGAGAGGGAGGGGGGUAACACUUUGGGAACAGGUGGUCCCAGGUCGUUUC | 1.4 |
| UCCUGUGCUACACAUCGUAUGUACCGAAUCGGAAAAAAAGGGAAAAAAAGGAAAAAAAGGAAAGUAUUAUGUUACGCCGUUCGGAUCUGC | -0.41 |
| UCAAGUCCUGUGCUACACAUCGUAUGUACCGAAUCGGAAAAAGGUGGAAAAAGGAAAGUAUUAUGUUACGCCGUUCGGAUCUGCACUUCC | -0.601 |
| AUGGACUUGCACAUGAUGAACUGUGAACUUCUAGCCACAUGUAGUGCCCUUGGGUACUUGGAGGGAGACACUUACCAUAAGGAACCAGAU | -1.78 |
| CCUCAAGUCCUGUGCUACACAUCGUAUGUACCGAAUCGGGGCGGCGGGCGGGGAAAGUAUUAUGUUACGCCGUUCGGAUCUGCACUUCCA | -1.03 |
| AGUCCUGUGCUACACAUCGUAUGUACCGAAUCGGGGUUUUUGGUUUUUGGUUUUUGGAAAGUAUUAUGUUACGCCGUUCGGAUCUGCACU | -2.15 |
| UGGCCCUGGUGGCAUGCGGGGAGGAAGAGGUGGCCUCAUGGAUCGUGGGGGUCCCGGUGGAAUGUUCAGAGGUGGCCGUGGUGGAGACAG | 0.0553 |

Study 3 — technique: RNA Bind-n-Seq; form: RNA; sample: in vitro; concentration: not given; relative to: input RNA pool; direction: higher = stronger binding
Target: RING finger protein unkempt homolog, zinc fingers 1-6, GST-SBP tag (UNK, Homo sapiens, UniProt Q9C0B0, residues 30-357)
Setting: RNA with constant flanks, human and mouse sites, ends assumed
Constant ends, left off below: GGGAGUUCUACAGUCCGACGAUC … CAACAGAGGAUUGAGCAUCA
Residues (chain): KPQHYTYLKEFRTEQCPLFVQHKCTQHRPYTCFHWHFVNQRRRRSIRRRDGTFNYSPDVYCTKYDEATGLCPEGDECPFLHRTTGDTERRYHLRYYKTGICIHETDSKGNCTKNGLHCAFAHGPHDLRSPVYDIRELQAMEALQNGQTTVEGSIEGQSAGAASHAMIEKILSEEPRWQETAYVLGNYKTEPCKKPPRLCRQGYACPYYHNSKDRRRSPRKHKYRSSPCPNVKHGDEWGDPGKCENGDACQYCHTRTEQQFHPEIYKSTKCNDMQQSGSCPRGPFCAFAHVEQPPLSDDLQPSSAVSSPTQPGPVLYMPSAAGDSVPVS
| Sequence | bound/input enrichment [ratio] |
| --- | --- |
| GACUGUGAAACUUAAAAUGAAGCAGGUAAAUCAAUAAGAUGCAAAACUGUCUUAAUUGAACCAUCAUAGAGACGGUCACUCCUGCCCACAGACUAGGUCUGCACUAAUUGCCACUUCGGC | 0.148 |
| UUGCCCUUGAAGCUGUCAAGUGCUGCCUGUCUCUCUCCUCGCCCUCCAGCUCCAUGCGUUGCUCUGUGCAUGCUUGAGGCCUUCCCCAGCUCGCGUGUGCAGGACAGUCCUUUGGUAAUG | 0.115 |
| GGGAUUUUGGACCAGGGGGAGGGUGUCCUGAUUAUUUUCGAUGAACCCCCAGUAGAUAAAACUUACGAAGCUGCUCUGGAAACAAUUCAGAACAUGAGCAAAGUAGUGGAUUCCCUCUAC | 1.73 |
| GCCAAGGGAAGAGAUGGUGUUGAGUGGAAAAUACAAAUCUGGGGAACAAAUUCUUCGUUUGGCCAAUGAGAGAUUUGCUGUUCCGGAAAUACUCUUUAAUCCUUCUGAUAUAGGCAUUCA | 0.276 |
| GUGAAUCUUUAACAUUACCUGGUGUGUUCCCUAACAUUCAAACUGUGCAUUGGCCAUACCCUUAGGAGUGGUUUGAGUAGUACAGACCUCGAAGCCUUGCUGCUAACACUGAGGUAGCUC | 0.271 |
| GUCUGCGCGGAUAAAUGUCGUGGAGCCCUUUUUGUAUGGAAACGUUUUAAGCUAUUUAAAGCCUUUGGAAAAUACAGGAAGCUCCAGGGCUGGAGCACCUCUGAGAUGGAAUUGAUAACA | 0.414 |
| GAAGAACAUUAUUCUUCUUCUCCAGAGAAGAUCCUAUCUCCUUUUUCACAAAAGUAUCAGGCUUGCAGAGCAAAUCUCCAGAGUACCAGCAGGUUGACUCUGUUUUCAGAAAUGGUUUAU | 0.233 |
| UGCUGCAGUAAAACACUGAAGGCUUUAAAAUGUUUUCUUGCAUAAAAGUCAAACUUUAAGUAGCUGCUUAUGAGGAUAGGGAAGGCAGGAAGCUAAUGUCUGUCUCAAGACACAGGACAG | 0.248 |
| GAUUGAUCUCUGGGCUGGUGAACAUAAUCUCUGUCCCAGUCAGAAAAGGAGAGAGGAAAUUAGCAGAGCGAUUGGUGGAGAAUGAUAUCUGUCAAAAGAAACACUUGGAGAGCACUGAGU | 0.538 |
| GGGCUGCUGUGCGAGUUCAGCGAUCGCAGGCUUCUGGACAAAUGGGUGGAGCUAAGGACCACUGUGGCCCACUGCAUCUCUGUCACCCAAGAAUACAUCUUCUGUGGCUGUGCUGAUGGC | 0.0791 |
| CAUAAGCGUUGUAUUGUAAUUCUUAGAGAGAUUCCUGAAACAACACCAAUAGAGGAAGUGAAAGGUUUGUUCAAAAGUGAAAACUGCCCCAAAGUGAUAAGCUGUGAGUUUGCACACAAU | 0.224 |

Study 4 — technique: aptamer microarray, sandwich; form: DNA with 2'F-ANA; sample: in vitro; concentration: 200 nM; added: Cy3 exosite-II aptamer, 400 nM; direction: higher = stronger binding; sequence: GGTTGGTGTGGTTGG
Target: Prothrombin, mature alpha-thrombin (F2, Homo sapiens, UniProt P00734)
Setting: whole 15-mer aptamer, many near background
| Modification | mean fluorescence intensity |
| --- | --- |
| 2'F-ANA at 1 5 6 7 11 13 | 49.4 a.u. |
| 2'F-ANA at 2 3 5 7 8 12 | 333 a.u. |
| 2'F-ANA at 1 6 8 9 12 14 15 | 72.1 a.u. |
| 2'F-ANA at 5 8 9 10 11 14 | 56.5 a.u. |
| 2'F-ANA at 2 6 11 12 13 15 | 443 a.u. |
| 2'F-ANA at 1 2 5 10 12 13 14 | 45.1 a.u. |
| 2'F-ANA at 7 10 12 14 15 | 126 a.u. |
| 2'F-ANA at 1 2 3 9 12 | 480 a.u. |
| 2'F-ANA at 1 2 4 7 9 11 12 13 14 15 | 51.5 a.u. |
| 2'F-ANA at 1 4 7 10 12 13 | 52.9 a.u. |
| 2'F-ANA at 1 2 3 4 5 7 8 10 11 12 14 15 | 50.1 a.u. |
| 2'F-ANA at 2 3 7 10 11 12 | 483 a.u. |
| 2'F-ANA at 2 4 5 6 8 9 | 80.5 a.u. |
| 2'F-ANA at 1 3 4 5 6 8 9 11 14 15 | 53.4 a.u. |
| 2'F-ANA at 1 2 4 5 6 7 9 11 12 15 | 82 a.u. |
| 2'F-ANA at 7 10 11 | 159 a.u. |

Study 5 — technique: universal PBM; form: double-stranded DNA, one strand shown; sample: in vitro; concentration: 600 nM; direction: higher = stronger binding
Target: Sal-like protein 4, full length isoform A (SALL4, Homo sapiens, UniProt Q9UJQ4, residues 1-1053)
UniProt Q9UJQ4, sequence (whole entry, looked up): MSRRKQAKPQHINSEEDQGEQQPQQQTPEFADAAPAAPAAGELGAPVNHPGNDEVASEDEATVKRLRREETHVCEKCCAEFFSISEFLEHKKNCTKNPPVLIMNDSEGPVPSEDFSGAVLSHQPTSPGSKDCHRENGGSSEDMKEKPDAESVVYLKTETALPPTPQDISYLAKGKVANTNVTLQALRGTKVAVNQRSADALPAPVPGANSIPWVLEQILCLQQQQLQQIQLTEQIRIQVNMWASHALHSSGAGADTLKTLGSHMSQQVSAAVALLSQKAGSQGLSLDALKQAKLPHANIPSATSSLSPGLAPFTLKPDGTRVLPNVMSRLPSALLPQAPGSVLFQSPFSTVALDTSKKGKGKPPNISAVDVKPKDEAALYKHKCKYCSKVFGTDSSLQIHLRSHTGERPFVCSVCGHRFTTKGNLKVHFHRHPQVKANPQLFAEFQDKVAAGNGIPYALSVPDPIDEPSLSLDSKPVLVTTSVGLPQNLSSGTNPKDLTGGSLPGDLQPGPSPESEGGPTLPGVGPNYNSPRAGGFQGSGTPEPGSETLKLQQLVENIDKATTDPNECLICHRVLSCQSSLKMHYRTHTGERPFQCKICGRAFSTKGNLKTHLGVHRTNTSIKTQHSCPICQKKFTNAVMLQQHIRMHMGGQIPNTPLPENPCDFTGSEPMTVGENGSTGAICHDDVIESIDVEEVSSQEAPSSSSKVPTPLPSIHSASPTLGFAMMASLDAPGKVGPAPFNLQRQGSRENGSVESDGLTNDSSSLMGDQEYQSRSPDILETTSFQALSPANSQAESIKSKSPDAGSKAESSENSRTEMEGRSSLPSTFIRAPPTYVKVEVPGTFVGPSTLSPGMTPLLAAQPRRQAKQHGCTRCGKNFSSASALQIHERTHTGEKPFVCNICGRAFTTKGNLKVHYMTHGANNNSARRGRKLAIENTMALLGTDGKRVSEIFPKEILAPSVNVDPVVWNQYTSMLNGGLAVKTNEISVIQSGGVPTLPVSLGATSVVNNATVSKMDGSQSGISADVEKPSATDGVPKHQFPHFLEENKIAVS
Setting: 8-mer, flanks averaged, mean of replicates
| Sequence | E-score |
| --- | --- |
| GGTACCCA | -0.255 |
| AACTGGTC | -0.0798 |
| AGGCTCTG | -0.233 |
| GATTCAAA | 0.148 |
| CGGCGCTA | -0.288 |
| AGACTGCT | -0.0349 |
| CGGGTCCC | -0.378 |
| GCACTAAA | 0.159 |
| ACTATTCA | 0.224 |
| TCTTAGCA | 0.0775 |
| ACCTGAAA | 0.0562 |
| CAGGCATG | -0.0461 |
| GTCGGTGA | -0.224 |
| GATTTTGC | 0.0156 |
| CTCATTAC | 0.253 |
| GCTGGTGA | -0.105 |
| CACCTCCC | -0.324 |
| GGACGAAC | 0.0708 |
| GGTAAGTA | 0.141 |
| ACAAAGCC | -0.0961 |
| CTATACGA | 0.0621 |
| AGGCCTAG | -0.146 |
| ACTTACCC | 0.0554 |

For quick reference, copied from above (study 5):
| Sequence | E-score |
| --- | --- |
| GGTAAGTA | 0.141 |
| GGACGAAC | 0.0708 |
| GGTACCCA | -0.255 |
| GATTCAAA | 0.148 |
| GCTGGTGA | -0.105 |
